Experimental data from different studies.
Compare with care: the assays were run in different laboratories. Converted amounts (≈) assume the structure as drawn.

SMILES	organism	test	test system	conditions	endpoint	value
COc1ccc2cc1Oc1cc(ccc1OC)CCC(N[C@@H]1CCCc3ccccc31)CCCC2 (some centres unmarked)	Streptococcus pyogenes	broth microdilution	ATCC 700294		MIC	> 100 µg/mL
CC(C)C[C@@H](NC(=O)[C@H](C)NC(=O)CNC(=O)[C@@H](NC=O)C(C)C)C(=O)N[C@@H](C)C(=O)N[C@@H](C(=O)N[C@H](C(=O)N[C@@H](C(=O)N[C@@H](Cc1c[nH]c2ccccc12)C(=O)N[C@H](CC(C)C)C(=O)N[C@@H](Cc1ccc2cc[nH]c2c1)C(=O)N[C@H](CC(C)C)C(=O)N[C@@H](Cc1c[nH]c2ccccc12)C(=O)N[C@H](CC(C)C)C(=O)N[C@@H](Cc1c[nH]c2ccccc12)C(=O)NCCO)C(C)C)C(C)C)C(C)C	Streptococcus pyogenes	broth microdilution	SSI-9		MIC	0.0083 µM
CC(=O)OCC(=O)[C@@]1(O)[C@H](C)C[C@H]2[C@@H]3CCC4=CC(=O)C=C[C@]4(C)[C@@]3(F)[C@@H](O)C[C@@]21C	human coronavirus OC43	virus-induced cell killing	MRC-5	screen	maximum inhibition	27.1%
CC[C@H](C)[C@H](NC(=O)[C@H](C)NC(=O)[C@H](CCCCN)NC(=O)[C@H](CC(C)C)NC(=O)[C@H](C)NC(=O)[C@@H](NC(=O)[C@H](Cc1c[nH]cn1)NC(=O)[C@H](CC(C)C)NC(=O)[C@@H](NC(=O)[C@@H](NC(=O)[C@H](CCCCN)NC(=O)[C@H](C)NC(=O)[C@H](C)NC(=O)[C@H](CO)NC(=O)[C@H](CCCCN)NC(=O)[C@H](Cc1ccccc1)NC(=O)[C@@H](NC(=O)[C@H](CCCCN)NC(=O)[C@H](CC(C)C)NC(=O)[C@H](Cc1ccccc1)NC(=O)[C@H](CO)NC(=O)[C@H](CCCCN)NC(=O)[C@H](Cc1c[nH]c2ccccc12)NC(=O)[C@H](CCCCN)NC(C)=O)[C@@H](C)O)[C@@H](C)O)C(C)C)[C@@H](C)O)C(=O)N[C@@H](CO)C(=O)N[C@@H](CO)C(N)=O	Streptococcus pyogenes		ATCC 13813	1 strain	MBC50	16 µg/mL (≈ 5.45 µM)
CN[C@H](CC(C)C)C(=O)N[C@H]1C(=O)N[C@@H](CC(N)=O)C(=O)N[C@H]2C(=O)N[C@H]3C(=O)N[C@H](C(=O)N[C@H](C(=O)O)c4cc(O)cc(O)c4-c4cc3ccc4O)[C@H](O)c3ccc(c(Cl)c3)Oc3cc2cc(c3O[C@@H]2O[C@H](CO)[C@@H](O)[C@H](O)[C@H]2O[C@H]2C[C@](C)(N)[C@H](O)[C@H](C)O2)Oc2ccc(cc2Cl)[C@H]1O	Streptococcus pyogenes				MIC	0.25 µg/mL
Cn1c(=O)ccc2ccc(F)c(CCNC[C@H]3CN(c4cnc5c(n4)NC(=O)CO5)C(=O)O3)c21	Streptococcus pyogenes				MIC50	0.03 µg/mL (≈ 0.064 µM)
CC(C)C[C@@H](NC(=O)[C@H](C)NC(=O)CNC(=O)[C@@H](NC=O)C(C)C)C(=O)N[C@@H](C)C(=O)N[C@@H](C(=O)N[C@H](C(=O)N[C@@H](C(=O)N[C@@H](Cc1c[nH]c2ccccc12)C(=O)N[C@H](CC(C)C)C(=O)N[C@@H](Cc1cccc2cc[nH]c12)C(=O)N[C@H](CC(C)C)C(=O)N[C@@H](Cc1c[nH]c2ccccc12)C(=O)N[C@H](CC(C)C)C(=O)N[C@@H](Cc1c[nH]c2ccccc12)C(=O)NCCO)C(C)C)C(C)C)C(C)C	Streptococcus pyogenes	broth microdilution	SSI-9		MIC	0.27 µM
CCCCCCCCCC(=O)N[C@@H](Cc1c[nH]c2ccccc12)C(=O)N[C@H](CC(N)=O)C(=O)N[C@@H](CC(=O)O)C(=O)N[C@@H]1C(=O)NCC(=O)N[C@@H](CCCN)C(=O)N[C@@H](CC(=O)O)C(=O)N[C@H](C)C(=O)N[C@@H](CC(=O)O)C(=O)NCC(=O)N[C@H](CO)C(=O)N[C@@H]([C@H](C)CC(=O)O)C(=O)N[C@@H](CC(=O)c2ccccc2N)C(=O)O[C@@H]1C	Streptococcus pyogenes				MIC90	0.06 µg/mL (≈ 0.037 µM)
CC(C)C[C@@H](NC(=O)[C@H](C)NC(=O)CNC(=O)[C@@H](NC=O)C(C)C)C(=O)N[C@@H](C)C(=O)N[C@@H](C(=O)N[C@H](C(=O)N[C@@H](C(=O)N[C@@H](Cc1c[nH]c2ccccc12)C(=O)N[C@H](CC(C)C)C(=O)N[C@@H](Cc1cc2ccccc2[nH]1)C(=O)N[C@H](CC(C)C)C(=O)N[C@@H](Cc1c[nH]c2ccccc12)C(=O)N[C@H](CC(C)C)C(=O)N[C@@H](Cc1c[nH]c2ccccc12)C(=O)NCCO)C(C)C)C(C)C)C(C)C	Streptococcus pyogenes	broth microdilution	SSI-9		MIC	0.066 µM
C[C@H]1COc2c(N3CCN(C)CC3)c(F)cc3c(=O)c(C(=O)O)cn1c23	Streptococcus pyogenes				MIC90	1 µg/mL (≈ 2.77 µM)
CC[C@@]1(O)C(=O)OCc2c1cc1n(c2=O)Cc2cc3c(CN(C)C)c(O)ccc3nc2-1	human coronavirus OC43	virus-induced cell killing	MRC-5	maximum over 10 doses	maximum inhibition	0%
